Published values pooled from the literature.
A part holds a random share of what one study measured. Substitutions count along the parent as printed.
Chain of UniProt Q9H0K1 (whole entry, looked up): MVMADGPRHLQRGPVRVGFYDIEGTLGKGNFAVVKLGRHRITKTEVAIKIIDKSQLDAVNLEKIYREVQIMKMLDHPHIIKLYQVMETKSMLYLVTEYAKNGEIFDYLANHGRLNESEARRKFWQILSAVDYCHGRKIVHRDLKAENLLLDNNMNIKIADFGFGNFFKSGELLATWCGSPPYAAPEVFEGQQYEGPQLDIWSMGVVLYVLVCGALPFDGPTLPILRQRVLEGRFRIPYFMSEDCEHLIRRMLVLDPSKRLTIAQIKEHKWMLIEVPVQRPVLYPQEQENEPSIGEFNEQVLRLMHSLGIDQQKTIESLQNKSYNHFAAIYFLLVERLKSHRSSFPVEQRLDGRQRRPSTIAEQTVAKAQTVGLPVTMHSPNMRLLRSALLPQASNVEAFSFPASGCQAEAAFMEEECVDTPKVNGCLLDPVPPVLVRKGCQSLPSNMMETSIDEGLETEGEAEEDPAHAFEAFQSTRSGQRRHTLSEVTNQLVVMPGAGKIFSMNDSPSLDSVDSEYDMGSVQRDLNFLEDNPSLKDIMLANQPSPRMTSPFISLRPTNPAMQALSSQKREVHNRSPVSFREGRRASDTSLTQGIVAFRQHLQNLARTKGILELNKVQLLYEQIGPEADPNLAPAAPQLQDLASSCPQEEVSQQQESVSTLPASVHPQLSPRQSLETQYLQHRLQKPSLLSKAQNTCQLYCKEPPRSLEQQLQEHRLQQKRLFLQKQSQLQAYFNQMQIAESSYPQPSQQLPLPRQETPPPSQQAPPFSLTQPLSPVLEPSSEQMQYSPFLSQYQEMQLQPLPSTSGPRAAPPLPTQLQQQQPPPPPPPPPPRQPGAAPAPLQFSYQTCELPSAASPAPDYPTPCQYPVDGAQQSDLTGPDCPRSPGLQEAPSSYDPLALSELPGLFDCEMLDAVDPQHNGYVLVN

Sample 1
Target: Protein C-ets-1 (ETS1, Homo sapiens, UniProt P14921, residues 1-441, Y397A, full length assumed)
Method: protein-binding microarray
Molecule type: double-stranded DNA, one strand shown
Sample: in vitro
Tested at: not given
Notes: k-mer, scored over probes, only values ≥0.25
Reading: higher = stronger binding
Residues (chain): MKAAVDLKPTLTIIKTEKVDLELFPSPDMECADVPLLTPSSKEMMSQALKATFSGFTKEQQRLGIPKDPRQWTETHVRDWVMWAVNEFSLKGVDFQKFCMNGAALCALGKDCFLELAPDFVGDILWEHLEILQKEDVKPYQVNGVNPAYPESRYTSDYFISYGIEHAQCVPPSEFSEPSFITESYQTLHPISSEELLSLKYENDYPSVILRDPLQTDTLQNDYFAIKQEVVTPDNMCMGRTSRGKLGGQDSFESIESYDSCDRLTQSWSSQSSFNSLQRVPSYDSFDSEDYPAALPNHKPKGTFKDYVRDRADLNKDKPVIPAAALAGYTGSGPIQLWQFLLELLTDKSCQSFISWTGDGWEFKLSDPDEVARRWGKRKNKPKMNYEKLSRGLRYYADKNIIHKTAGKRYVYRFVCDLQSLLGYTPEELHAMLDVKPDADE
For `ATATCCGG`, the E-score was 0.398.
`ATTATGCG` gave an E-score of 0.256.
With `TGTCAACA` the E-score was 0.317.
`CGACAATA` gave an E-score of 0.326.
With `ACACAAAA` the E-score was 0.262.
`CATGTCAC` gave an E-score of 0.296.
`AGGATGTG` has an E-score of 0.257.
For `GTGACACA`, the E-score was 0.285.

Sample 2
Change: S11K
Target: ABI1, truncated, D143A, DHFR fusion (Arabidopsis thaliana)
Method: DHFR PCA, deep sequencing
Sample: yeast
Notes: methotrexate growth selection, single substitutions
Relative to: wild-type fitted maximum
Reading: higher = stronger binding
Starting sequence: PYL1, truncated, DHFR fusion (Arabidopsis thaliana); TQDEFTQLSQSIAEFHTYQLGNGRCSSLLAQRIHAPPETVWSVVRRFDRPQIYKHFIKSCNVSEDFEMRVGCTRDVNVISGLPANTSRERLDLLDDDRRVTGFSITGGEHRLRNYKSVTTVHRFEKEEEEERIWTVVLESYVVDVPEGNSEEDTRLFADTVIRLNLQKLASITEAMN
For together with: (+)-ABA 0.39 µM: “relative binding score” read 9.73%.
The “relative binding score” was -0.631% (together with: (+)-ABA 0 µM).
For together with: (+)-ABA 200 µM: “relative binding score” read 86.7%.
For together with: (+)-ABA 17 µM: “relative binding score” read 66.1%.
together with: (+)-ABA 0.0091 µM — “relative binding score”: -2.84%.
The “relative binding score” was 81.5% (together with: (+)-ABA 58 µM).

Sample 3
Target: Prothrombin, mature alpha-thrombin (F2, Homo sapiens, UniProt P00734)
Method: aptamer microarray, sandwich
Molecule type: DNA with 2'F-ANA
Sample: in vitro
Tested at: 200 nM
Notes: whole 15-mer aptamer, many near background
Together with: Cy3 exosite-II aptamer, 400 nM
Reading: higher = stronger binding
Sequence: GGTTGGTGTGGTTGG
Under “mean fluorescence intensity”, `2'F-ANA at 3 4 5 7 15` is recorded as 110 a.u.
`2'F-ANA at 1 2 4 5 6 9 10 13 14 15` — result for “mean fluorescence intensity”: 45.3 a.u.
`2'F-ANA at 2 5 6 7 8 9 12`: “mean fluorescence intensity” 176 a.u.
Under “mean fluorescence intensity”, `2'F-ANA at 1 4 6 7 11 12 14` is recorded as 54.4 a.u.
`2'F-ANA at 3 7 8 11 12 13 15`: “mean fluorescence intensity” 1280 a.u.
For `2'F-ANA at 3 4 6 7 11 13`, “mean fluorescence intensity” read 455 a.u.
`2'F-ANA at 1 3 4 5 7 8 9 10 11 12 13 14`: “mean fluorescence intensity” 49.3 a.u.
`2'F-ANA at 2 3 4 6 8 9 10 12 13 14`: “mean fluorescence intensity” 158 a.u.

Other studies, line by line
The remaining activity of `CC[n+]1c(/C=C/N(C)c2ccccc2)n(-c2ccccc2)c2ccc(-c3nc4ccccc4s3)cc21` is reported as 112% (Serine/threonine-protein kinase SIK2 (SIK2, Homo sapiens, UniProt Q9H0K1); enzyme activity, inhibitor; 0.5 µM; relative to: control).
